Experimental data gathered from unrelated publications.
Each numbered part is a random draw from the data of one study; scales do not carry over between parts.

Block 1
Target: RNA binding protein fox-1 homolog 2, RRM domain, GST-SBP tag (RBFOX2, Homo sapiens, UniProt O43251-10, residues 100-194)
Technique: RNA Bind-n-Seq
Molecule type: RNA
Matrix: in vitro
Tested at: 365 nM
Setting: natural RNA segment, single round, ends assumed
Baseline: no-protein control
Reading: higher = stronger binding
Constant ends, left off below: GGGAGUUCUACAGUCCGACGAUC … UGGAAUUCUCGGGUGCCAA
Construct (chain): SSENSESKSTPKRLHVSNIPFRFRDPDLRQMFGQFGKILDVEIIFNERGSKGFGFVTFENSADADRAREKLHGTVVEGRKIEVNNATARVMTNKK
| Strand | RBNS enrichment (R) |
| --- | --- |
| AGACCUUAGAAUCCCAUCUCUAUUUUCCCAACUGACUGUGACAGGCAUGAGGCACUGUCACUUGCUUAGUACAAAGUCCUGGGCUGGAGAGAUGGCUCAGUGGUUAAGAG | 1.02 |
| ACACCGAAACCUCCCUUCUUAAAGCGUGUGAGGUUGGGUGAUAGCCGUUCCUUCCCCGACACCCUCAAUUUCCCCAUCUCUGAUCCUCUAAUCUGCCUCUGAACCCAUUC | 0.578 |
| GCCAAAAAGUACUUGACUUAAGGUUCACUAAUUAGUUACAAAACUGAACAGCCUCGAUUUUUAAGAAAAUUUAUGAAAUGUAUUUGUCUGUAAAAAUUGUAUAUAUUUUU | 0.948 |
| AGCAGCAGGAACAAAGCAGGCUUACUGCUGUCAACACUGCUUAAAAUGCUUUCAUGUCCUAGGUAAAGAAAAAACAUAAUUGCUUGUGAAGCAGUUUCAUGAUAAAUAGU | 0.33 |
| AGUUCUUUGCCAGGCUGCCUGCCGGAAAAGGUGUAGACAGAUGCUACUAAGACACCAAAUAGUGUCCAUGUAAGAUGGCAACUGCAUUAAAAAAAAAUCAGGAAAAACAA | 0.375 |
| GCCUUCCCCAAGACAAUGAGGUUUGCCUGCACCCUGGCCUGCUACCUGGACUUUGCCUGGUGCCUUCUAGGCGUCUUUCAGAGAUGGCCCAGGAGGCUUGGAGCUUGGAC | 0.508 |
| CUUCCUCACCGCAGAUGUUUCUGCCUCUUAAGGAUAGAUCUUCUGCAACAGUCUUGCUGACAAGCUAGAGCUUGGACUGAAAGAGAAGAGCUGGAUUAUAUAUUUCCCAG | 0.286 |
| UGGCCCUGGUCCCACCUCUAAUCCCUACUGUCAUCAGGCACUACAGCCCAAAAAGAGGUGCUUGUGAGCACACCCACCCAAGUGAACCCAGUGGCUGCCAUGGUCCUCUU | 0.504 |

Block 2
Target: Interferon regulatory factor 3, full length, phosphomimetic (IRF3, Homo sapiens, UniProt Q14653, residues 1-427, S386D/S396D/S398D/S402D/T404D/S405D)
UniProt Q14653, sequence (whole entry, unmodified, looked up): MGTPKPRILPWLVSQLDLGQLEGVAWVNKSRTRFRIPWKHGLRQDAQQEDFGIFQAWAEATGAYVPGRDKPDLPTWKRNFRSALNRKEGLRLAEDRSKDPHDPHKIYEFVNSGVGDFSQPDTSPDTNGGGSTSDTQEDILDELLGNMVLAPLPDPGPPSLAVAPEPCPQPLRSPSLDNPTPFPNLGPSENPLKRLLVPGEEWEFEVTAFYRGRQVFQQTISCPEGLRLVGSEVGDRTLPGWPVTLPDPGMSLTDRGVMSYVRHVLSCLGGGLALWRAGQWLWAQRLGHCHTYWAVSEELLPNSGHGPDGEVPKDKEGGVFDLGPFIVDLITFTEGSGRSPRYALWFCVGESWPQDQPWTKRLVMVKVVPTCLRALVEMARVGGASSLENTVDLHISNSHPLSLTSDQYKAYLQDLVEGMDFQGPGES
Technique: protein-binding microarray
Molecule type: double-stranded DNA, one strand shown
Matrix: in vitro
Tested at: 2540 nM top
Setting: 60-bp whole probe
Added: salmon DNA 0.4 mg/ml
Baseline: random background probes
Reading: higher = stronger binding
Constant ends, left off below: GCCTAGCAC … GTCTTGATTCGCTTGACGCTGCTG
| Strand | fitted relative affinity |
| --- | --- |
| TCCCTTTTCATGCTCTTATAGTGCTAG | 3.82 z-score |
| TTAGGTCCCCTTTTCCTTTAGTGCTAG | 3.61 z-score |
| TGGAACCAGCGAACGAGCGGGTGCTAG | -0.704 z-score |
| TTTGGTATCGACTATCGGTTAGTGCTA | 0.616 z-score |
| GAGGGGGCAGGGACTCAGGGGTGCTAG | -0.552 z-score |
| GACGGTATCGGGTTTCGTGACGTGCTA | 2.51 z-score |

Block 3
Target: PABPC1L2, full length, GST fusion (mouse, UniProt A0ABA7IW68)
Technique: RNAcompete
Molecule type: RNA
Matrix: in vitro
Tested at: 20 nM
Setting: 7-mer, probes averaged, single round
Baseline: mean of 7-mers
Reading: higher = stronger binding
Target sequence (chain): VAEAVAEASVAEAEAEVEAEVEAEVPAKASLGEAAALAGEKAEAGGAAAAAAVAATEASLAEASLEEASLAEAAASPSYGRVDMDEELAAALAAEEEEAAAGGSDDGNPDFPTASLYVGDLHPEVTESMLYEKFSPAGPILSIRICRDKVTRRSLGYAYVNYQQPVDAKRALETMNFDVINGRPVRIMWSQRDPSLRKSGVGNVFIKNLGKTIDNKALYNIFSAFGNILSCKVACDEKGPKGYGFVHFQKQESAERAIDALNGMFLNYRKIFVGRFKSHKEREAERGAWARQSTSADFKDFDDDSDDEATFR
| Strand | 7-mer Z-score |
| --- | --- |
| GAUAUUC | -0.293 |
| GCGGUUC | -0.121 |
| AAUGAGG | 0.508 |
| CAAGCGA | 0.16 |
| GUCCAAA | 0.626 |
| CGCAAAC | 0.193 |
| UCUCGGC | -0.206 |

Single results of other studies
| Molecule | target | assay | system | conditions | scale | endpoint | result |
| --- | --- | --- | --- | --- | --- | --- | --- |
| PhoQ, residues 284 288 289 292 302 303 SSLVEF | PhoP, residues 12 14 15 18 19 AQCLL (Escherichia coli, UniProt P23836) | Sort-seq, item: YFP reporter | E. coli | PhoQ-PhoP variant library, added: 10 µM Mg2+ | baseline: high Mg2+ state, higher = stronger signaling | fold induction | 2.35 |

Repeated from above (block 2):
| Strand | fitted relative affinity |
| --- | --- |
| TTAGGTCCCCTTTTCCTTTAGTGCTAG | 3.61 z-score |
